Results pooled from the literature.
Each numbered part is a random draw from the data of one study; scales do not carry over between parts. Positions count from the first letter of the parent shown.

Set 1
Target: Fragile X messenger ribonucleoprotein 1, C-terminal low-complexity region (Fmr1, Mus musculus, UniProt P35922)
Technique: RNA Bind-n-Seq
Molecule type: RNA
Medium: in vitro
Tested at: 200 nM
Notes: whole 134-nt RNA, ends assumed
Added: 150 mM LiCl
Baseline: input library
Reading: higher = stronger binding
Library: 7-deaza-guanosine replaces G
Constant ends, left off below: GGGAGUUCUACAGUCCGACGAUC … UGGAAUUCUCGGGUGUCAAGG
| Sequence | log2 enrichment |
| --- | --- |
| UGGCCCUGGUGGCAUGCGGGGAGGAAGAGGUGGCCUCAUGGAUCGUGGUGGUCCCGGUGGAAUGUUCAGAGGUGGCCGUGGUGGAGACGG | -0.36 |
| CCUCAAGUCCUGUGCUACACAUCGUAUGUACCGAAUCGGGGAGGGGAGGAGGAAAGUAUUAUGUUACGCCGUUCGGAUCUGCACUUCCAG | -0.704 |
| UCAAGUCCUGUGCUACACAUCGUAUGUACCGAAUCGGGAAAAAGGGUGGGUGGGAAAGUAUUAUGUUACGCCGUUCGGAUCUGCACUUCC | -1.27 |
| AAGUCCUGUGCUACACAUCGUAUGUACCGAAUCGGGGUUUGGGGUUUGGGUUUGGGGAAAGUAUUAUGUUACGCCGUUCGGAUCUGCACU | -0.678 |
| GCAGGAAGUAAAAACAAAUGGAAAUGCUUCGGAUAGUGGCAGGGGUGGGGGUUGCUAAGGAACGGGUGGGAUGGGAGUGGGUAAAGAGUU | 1.58 |
| ACCAUGCACGUGGGCAUCUUUGGGAAGUGGGGCAAGGGGGGGAUAGGGAGGGGGGUAACACUUUGGGAACAGGUGGUCCCAGGUCGUUUC | 1.27 |
| CUCAAGUCCUGUGCUACACAUCGUAUGUACCGAAUCGGGUUUGGGUGGGUGGGAAAGUAUUAUGUUACGCCGUUCGGAUCUGCACUUCCA | -0.683 |
| AAGUCCUGUGCUACACAUCGUAUGUACCGAAUCGGGUUUUGGGUUUUGGUUUUGGGAAAGUAUUAUGUUACGCCGUUCGGAUCUGCACUU | -1.85 |
| CUGUGCUACACAUCGUAUGUACCGAAUCGGGUUUUUUUGGGUUUUUUUGGGUUUUUUUGGGGAAAGUAUUAUGUUACGCCGUUCGGAUCU | 1.22 |
| UGGGAGGUGGAUUUUGUUUAUUUUUUUAGCUCAUUUCAAGGGGUGGGAAUUUUUUUUUAAUAUGUGUCAUGAAUAAAGUUGUUUUUGAAA | 1.22 |
| UGUGCUACACAUCGUAUGUACCGAAUCGGGGCCCCCCCGGGCCCCCCCGGGGCCCCCCCGGGGAAAGUAUUAUGUUACGCCGUUCGGAUC | -1.35 |

Set 2
Target: Sal-like protein 4, full length isoform A (SALL4, Homo sapiens, UniProt Q9UJQ4, residues 1-1053)
UniProt Q9UJQ4, sequence (whole entry, looked up): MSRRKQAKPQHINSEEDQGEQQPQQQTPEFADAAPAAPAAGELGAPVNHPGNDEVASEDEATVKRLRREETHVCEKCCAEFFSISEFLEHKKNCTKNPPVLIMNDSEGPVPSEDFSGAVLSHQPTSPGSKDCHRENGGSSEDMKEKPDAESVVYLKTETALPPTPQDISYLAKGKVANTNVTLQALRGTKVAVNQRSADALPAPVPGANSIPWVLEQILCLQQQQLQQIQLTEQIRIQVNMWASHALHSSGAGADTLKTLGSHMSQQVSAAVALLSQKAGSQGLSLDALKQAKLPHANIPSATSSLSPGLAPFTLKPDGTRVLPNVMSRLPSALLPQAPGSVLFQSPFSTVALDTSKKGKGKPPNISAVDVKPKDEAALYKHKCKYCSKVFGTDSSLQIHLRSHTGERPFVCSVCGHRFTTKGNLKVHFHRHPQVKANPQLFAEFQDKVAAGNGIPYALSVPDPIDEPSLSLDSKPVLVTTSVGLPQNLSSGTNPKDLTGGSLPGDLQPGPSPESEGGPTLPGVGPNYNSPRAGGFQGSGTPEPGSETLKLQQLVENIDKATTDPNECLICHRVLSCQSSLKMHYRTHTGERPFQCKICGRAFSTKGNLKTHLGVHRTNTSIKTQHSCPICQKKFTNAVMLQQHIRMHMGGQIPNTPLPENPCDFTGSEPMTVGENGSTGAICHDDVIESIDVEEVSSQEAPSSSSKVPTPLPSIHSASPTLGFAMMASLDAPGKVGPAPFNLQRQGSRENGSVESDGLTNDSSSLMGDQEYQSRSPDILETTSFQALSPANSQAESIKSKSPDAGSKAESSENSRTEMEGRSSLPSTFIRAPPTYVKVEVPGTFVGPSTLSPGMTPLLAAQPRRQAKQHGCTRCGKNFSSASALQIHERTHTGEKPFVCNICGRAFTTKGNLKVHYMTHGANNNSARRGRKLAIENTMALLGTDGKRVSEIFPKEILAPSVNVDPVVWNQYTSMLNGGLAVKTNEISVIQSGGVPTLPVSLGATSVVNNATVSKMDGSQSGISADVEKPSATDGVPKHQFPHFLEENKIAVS
Technique: universal PBM
Molecule type: double-stranded DNA, one strand shown
Medium: in vitro
Tested at: 600 nM
Notes: 8-mer, flanks averaged, mean of replicates
Reading: higher = stronger binding
| Sequence | E-score |
| --- | --- |
| CTAAGTAG | 0.0245 |
| AGAGGTTC | -0.00148 |
| CCCTCGGC | -0.318 |
| TTATTAAA | 0.452 |
| AAATGCCT | 0.102 |
| GCGTCTTA | 0.0291 |
| ACGCTAAA | 0.0889 |
| CCCGAAGG | -0.17 |
| ACTCAATC | 0.0633 |
| ATAAATTA | 0.429 |
| GAACATTA | 0.201 |
| CTCGCAAA | -0.0468 |
| TCCCGGCA | -0.288 |
| CCATAGCC | -0.178 |
| ACCATCGA | 0.0397 |
| AACATCGG | -0.0887 |
| CGTTTTTC | 0.125 |
| ACGACAAT | 0.0872 |
| CAACGCTC | -0.137 |
| AACCTCCT | -0.0362 |

Set 3
Target: Prothrombin, mature alpha-thrombin (F2, Homo sapiens, UniProt P00734)
Technique: aptamer microarray, sandwich
Molecule type: DNA with 2'F-ANA
Medium: in vitro
Tested at: 200 nM
Notes: whole 15-mer aptamer, many near background
Added: Cy3 exosite-II aptamer, 400 nM
Reading: higher = stronger binding
Sequence: GGTTGGTGTGGTTGG
| Modification | mean fluorescence intensity [a.u.] |
| --- | --- |
| 2'F-ANA at 3 5 8 9 10 12 13 14 | 55.2 |
| 2'F-ANA at 2 3 4 5 7 9 10 11 13 | 51.7 |
| 2'F-ANA at 2 5 6 7 8 10 13 | 42.3 |
| 2'F-ANA at 1 2 3 8 9 10 12 13 14 | 55 |
| 2'F-ANA at 1 2 3 7 9 10 12 13 14 15 | 70.6 |
| 2'F-ANA at 3 4 5 11 12 13 14 | 53.2 |
| 2'F-ANA at 1 5 8 9 10 11 14 15 | 316 |
| 2'F-ANA at 3 10 12 13 | 616 |
| 2'F-ANA at 4 8 9 13 14 | 102 |
| 2'F-ANA at 3 6 7 8 10 12 | 616 |
| 2'F-ANA at 6 7 8 9 10 12 15 | 210 |
| 2'F-ANA at 1 3 5 6 7 10 12 | 48 |
| 2'F-ANA at 1 2 6 8 11 12 | 300 |
| 2'F-ANA at 1 4 5 6 7 11 12 13 15 | 61.2 |
| 2'F-ANA at 5 7 8 9 10 11 15 | 48.8 |

Set 4
Target: RNA binding protein fox-1 homolog 2, RRM domain, GST-SBP tag (RBFOX2, Homo sapiens, UniProt O43251-10, residues 100-194)
Technique: RNA Bind-n-Seq
Molecule type: RNA
Medium: in vitro
Tested at: 365 nM
Notes: natural RNA segment, single round, ends assumed
Baseline: no-protein control
Reading: higher = stronger binding
Constant ends, left off below: GGGAGUUCUACAGUCCGACGAUC … UGGAAUUCUCGGGUGCCAA
Target sequence (chain): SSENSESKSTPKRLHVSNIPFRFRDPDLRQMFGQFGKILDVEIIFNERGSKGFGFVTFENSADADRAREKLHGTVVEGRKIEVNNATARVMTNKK
| Sequence | RBNS enrichment (R) |
| --- | --- |
| AAGUUGCAAACAAUAUCGCUGAACAGUAGGGUGUGUGGUGGUUUGGGGCAGUCUGACUUCACUUUAGUGUAUGACGUCUGUAGCCAAUGGGAACGUGAAAUAUUGGUGCG | 0.632 |
| UACCCAACAACCCUGUGUAACAACUAAAGUAGAAUUAUCUCUCAUUUGUUGUUGUUUUUCCUCAAAAUUACCAAACAAAGCAAAAAAUACCCUUGUUUUUUAUAGUUGAG | 0.31 |
| GAUGAGAAUUUUUCUCCUAUAUACUAAAUCCUCUUAAAGACUCAACUCUUUGUAGUUUUGUCAAAGACAAAUACUCUGUAAAGUCCCCCACCUACCCCAGAUCUACAGCU | 0.525 |
| GGUUAUCUCUUGGUAUCUCUCCUGACAUAUUUGUUUUGCUUUAAAUUGGAUUAAAUGGUUUACAGGUUAUCUGAAUCUACAGAUUUAGUAUGUCUAUUAUCUGGACAUGA | 0.278 |
| AGAAAUAUUUUUAUAUGCGUUGUGUAAUUUAUAACAAGGGGUUUUCUUUUAGGCUUUGUUAACUGAAUGCUCCUCUCCUCCUCCACUGCAUAGUUAAAGCAUGUGUUCAC | 4.09 |
| UUUAAGUAGUGACUAAGAUGAGAGGUUAUUGAAAAGUCAAGAACUAGUAGCAAUAGCAGAGAGAGCUGUAAAUUCUCAGGUCCUCCUAGACUUAACCAAAUCUGAGUGCC | 0.487 |
| GCUGGCUCAUUAUUUUCCUCAAAGCCUUCUGUCUUUCCUGUGCCUGCCUGUGACUCUUUGCACACUCUGUACUGAGUUUGGUGCUCCACCCAUUCACUGGGGUCAGGUGG | 1.88 |
| UUUGUUUGGAUAUAGUUUAUAGGAAAGUGUGUGGAUGUAUUAUGGCGGAAGGUUUCUUUAUGUUAUUUUGUUAAUUUAUUGGGACUCUGUGUAAGGCCAGGCUUUAGUGG | 1.04 |
| AAAGCAAAAACAAAAGGAGGUAUUAAGUCCAGUUUCCAGGCUACUUGCUGUGUACAUCAAGAAAAUUCAGUUGAAUUCUGAGAUUAGCAUGGUUAUUAGCACUUUAUGCU | 0.707 |
| UUGUUUAAAAACCAAAUAAGCAUCUGUGUAACCUCCACAGUAGCAUUUCUUAUUUGUUUGGUCACUGCUACACCUUAGCAGCUCUUCCCCUUUCCUGGGGGAUGUGCACG | 0.543 |
| AGGAGCGGGAGGGUUCCGCCACUCCAGUUUUCUCCUCUGCUUCUUUGCCUCCCUCAGAUAGAAAACAGCCCCCACUCCAGUCCACUCCUGACCCCUCUCCUCAAGGGAAG | 0.504 |
| UCGGCAAUGCCCCUUUUGGAGCAUGGAAGGGCUUCAGGGAUGGGGCAGCCUGGAAGGACAGGUGGAGGCUGGUACAGUGACUGUCCCAUGCCUGCCAUGGCCACAGGCUC | 0.862 |

Set 5
Target: CCNA2, cyclin fold, Cln2 fusion (human)
Technique: yeast growth competition, sequencing
Medium: yeast
Notes: strong parent motif
Baseline: not given
Reading: higher = stronger binding
Starting sequence: WEE1 docking peptide (human); CTLRQKLIFSPCS
| Substitution | normalised enrichment score |
| --- | --- |
| CTLRAKLIFSPCS [Q5A] | 1.19 |
| CTLRQKLIFSACS [P11A] | 1.47 |
| CTLRQALIFSPCS [K6A] | 0.491 |
| CTLRQKLIFSPCA [S13A] | 0.877 |
| CTLAQKLIFSPCS [R4A] | 0.458 |
| ATLRQKLIFSPCS [C1A] | 1.2 |
